Published values of several laboratories.
Each line is one published result; not all experiments were run side by side. Numbers after ± are the reported error.
Cell line: Vero

SMILES | effect on | technique | time | CC50
O=C1c2ccccc2C(=O)c2c1ccc1c2C(C(=O)Nc2ccccc2)C(=O)C1c1ccccc1 (stereo not drawn) | cytotoxicity | – | – | 54.96 ± 0.08 µg/mL
CCN(CC)CC(=O)NNc1ccccc1Sc1cc(Cl)ccc1[N+](=O)[O-] | – | – | – | > 100 µM
CC1(C)CCC(CN2CCN(c3ccc(C(=O)NS(=O)(=O)c4ccc(NCC5CCOCC5)c([N+](=O)[O-])c4)c(Oc4cnc5[nH]ccc5c4)c3)CC2)=C(c2ccc(Cl)cc2)C1 | cell growth or viability | WST-1 | 18 h | 20.6 µM
Cc1ccc(S(=O)(=O)NC[C@]2(C)CCC[C@]3(C)c4cc(O)c(C(C)C)cc4CC[C@@H]23)cc1 | cell growth or viability | MTT | 96 h | 11.5 µM
O=C1c2ccccc2C(=O)c2c1ccc1c2C(C(=O)Nc2ccc(Br)cc2)C(=O)C1c1ccccc1 (stereo not drawn) | cytotoxicity | – | – | 80.3 ± 0.01 µg/mL
CC[C@H](C)[C@@H]1NC(=O)[C@@H]2[C@H](CCN2C(=O)[C@@H](NC(=O)[C@@H](C)NC)[C@@H](C)CC)Oc2ccc(OC)c(c2)/C=C\NC1=O | cell growth or viability | MTT | 48 h | 211 µM
O=C1C(Cl)=C(Cl)C(=O)c2ccccc21 | cell growth or viability | – | 72 h | 21.8 µM
CN1c2ccccc2C(N)c2sccc2S1(=O)=O (stereo not drawn) | – | – | – | > 100 µM
C[C@@H](O)[C@H](NC(=O)[C@@H]1CCCN1C(=O)[C@H](Cc1ccc(O)cc1)NC(=O)CNC(=O)[C@H](CCCNC(=N)N)NC(=O)CNC(=O)[C@H](CO)NC(=O)[C@H](Cc1c[nH]cn1)NC(=O)OCC1c2ccccc2-c2ccccc21)C(=O)N[C@@H](CO)C(=O)N1CCC[C@H]1C(=O)N[C@@H](Cc1c[nH]c2ccccc12)C(=O)N[C@@H](CO)C(=O)O | cell growth or viability | MTS | 24 h | > 200 µg/mL
CC(C)OC(=O)[C@H](C)N[P@](=O)(OC[C@H]1O[C@@H](n2ccc(=O)[nH]c2=O)[C@@](F)(Br)[C@@H]1O)Oc1ccccc1 | – | MTS | 4 days | > 100 µM
CN1c2ccccc2C(OCCN2CCNCC2)c2sccc2S1(=O)=O (stereo not drawn) | – | – | – | > 100 µM
CCC(CC)COC(=O)[C@H](C)N[P@](=O)(OC[C@H]1O[C@@](C#N)(c2ccc3c(N)ncnn23)[C@H](O)[C@@H]1O)Oc1ccccc1 | cell growth or viability | WST-1 | 18 h | > 40 µM
O=C(CNCCC1CCN(Cc2ccccc2)CC1)Nn1c2ccccc2c2ccccc21 | – | – | – | 16.6 µM
CC(=O)[C@@]1(O)CC[C@H]2[C@@H]3CCC4=CC(=O)CC[C@]4(C)[C@H]3CC[C@@]21C | cell growth or viability | WST-1 | – | > 40 µM
CC[C@H](C)[C@H](NC(=O)[C@H](CC(C)C)NC(=O)CNC(=O)[C@H](Cc1c[nH]cn1)NC(=O)[C@@H](NC(=O)[C@H](Cc1ccccc1)NC(=O)[C@H](CC(N)=O)NC(=O)[C@H](Cc1c[nH]c2ccccc12)NC(=O)[C@@H](NC(=O)[C@H](Cc1c[nH]cn1)NC(=O)[C@H](Cc1c[nH]cn1)NC(=O)[C@H](Cc1c[nH]c2ccccc12)NC(=O)[C@@H](N)CC(C)C)[C@@H](C)CC)C(C)C)C(N)=O | – | MTT | 48 h | 26.8 µg/mL
O=C1c2ccccc2C(=O)c2c1ccc1c2C(C(=O)Nc2ccc(Cl)cc2)C(=O)C1c1ccccc1 (stereo not drawn) | cytotoxicity | – | – | 87.16 ± 0.05 µg/mL
CC(C)(C)SSc1ccccc1CCOP1(=O)OC[C@H]2O[C@@H](n3ccc(=O)[nH]c3=O)[C@](C)(F)[C@@H]2O1 (stereo partly drawn) | – | MTS | 4 days | 16.4 µM
CC[C@H](C)[C@H](NC(=O)[C@H](CC(C)C)NC(=O)[C@H](Cc1c[nH]cn1)NC(=O)[C@H](Cc1c[nH]cn1)NC(=O)[C@@H](NC(=O)[C@H](Cc1ccccc1)NC(=O)[C@H](CC(N)=O)NC(=O)[C@H](Cc1c[nH]c2ccccc12)NC(=O)[C@@H](NC(=O)[C@H](Cc1c[nH]cn1)NC(=O)[C@H](Cc1c[nH]cn1)NC(=O)[C@H](Cc1c[nH]c2ccccc12)NC(=O)[C@@H](N)CC(C)C)[C@@H](C)CC)C(C)C)C(N)=O | – | MTT | 48 h | 27.6 µg/mL

Repeated from above:
SMILES | effect on | technique | time | CC50
O=C1c2ccccc2C(=O)c2c1ccc1c2C(C(=O)Nc2ccccc2)C(=O)C1c1ccccc1 (stereo not drawn) | cytotoxicity | – | – | 54.96 ± 0.08 µg/mL
CCN(CC)CC(=O)NNc1ccccc1Sc1cc(Cl)ccc1[N+](=O)[O-] | – | – | – | > 100 µM
